Measured values of several laboratories.
Each line is one published result; not all experiments were run side by side. Values joined by “and” are separate records of one study, mostly repeats; a detail may differ. Numbers after ± are the reported error.
qscR: qscR (Pseudomonas aeruginosa, UniProt G3XD77)
Sequence of UniProt D0VWV4 (whole entry, looked up): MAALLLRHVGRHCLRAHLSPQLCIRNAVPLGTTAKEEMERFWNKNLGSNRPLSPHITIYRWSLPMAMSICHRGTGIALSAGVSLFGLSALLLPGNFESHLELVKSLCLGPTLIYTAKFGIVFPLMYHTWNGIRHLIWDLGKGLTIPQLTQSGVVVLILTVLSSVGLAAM
Sequence of UniProt Q007T0 (whole entry, looked up): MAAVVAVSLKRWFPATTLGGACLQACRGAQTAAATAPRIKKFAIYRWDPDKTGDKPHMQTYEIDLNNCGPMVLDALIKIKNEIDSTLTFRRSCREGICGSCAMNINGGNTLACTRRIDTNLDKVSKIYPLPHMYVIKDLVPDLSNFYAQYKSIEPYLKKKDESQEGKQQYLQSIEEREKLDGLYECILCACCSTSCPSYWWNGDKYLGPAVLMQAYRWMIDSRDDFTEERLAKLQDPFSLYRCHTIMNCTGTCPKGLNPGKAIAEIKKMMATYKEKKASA
Sequence of UniProt A5GZW8 (whole entry, looked up): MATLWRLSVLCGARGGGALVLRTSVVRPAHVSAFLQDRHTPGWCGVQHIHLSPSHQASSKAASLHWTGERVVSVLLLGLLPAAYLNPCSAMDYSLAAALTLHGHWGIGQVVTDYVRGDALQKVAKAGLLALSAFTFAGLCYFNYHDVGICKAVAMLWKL
Sequence of UniProt Q62351 (whole entry, looked up): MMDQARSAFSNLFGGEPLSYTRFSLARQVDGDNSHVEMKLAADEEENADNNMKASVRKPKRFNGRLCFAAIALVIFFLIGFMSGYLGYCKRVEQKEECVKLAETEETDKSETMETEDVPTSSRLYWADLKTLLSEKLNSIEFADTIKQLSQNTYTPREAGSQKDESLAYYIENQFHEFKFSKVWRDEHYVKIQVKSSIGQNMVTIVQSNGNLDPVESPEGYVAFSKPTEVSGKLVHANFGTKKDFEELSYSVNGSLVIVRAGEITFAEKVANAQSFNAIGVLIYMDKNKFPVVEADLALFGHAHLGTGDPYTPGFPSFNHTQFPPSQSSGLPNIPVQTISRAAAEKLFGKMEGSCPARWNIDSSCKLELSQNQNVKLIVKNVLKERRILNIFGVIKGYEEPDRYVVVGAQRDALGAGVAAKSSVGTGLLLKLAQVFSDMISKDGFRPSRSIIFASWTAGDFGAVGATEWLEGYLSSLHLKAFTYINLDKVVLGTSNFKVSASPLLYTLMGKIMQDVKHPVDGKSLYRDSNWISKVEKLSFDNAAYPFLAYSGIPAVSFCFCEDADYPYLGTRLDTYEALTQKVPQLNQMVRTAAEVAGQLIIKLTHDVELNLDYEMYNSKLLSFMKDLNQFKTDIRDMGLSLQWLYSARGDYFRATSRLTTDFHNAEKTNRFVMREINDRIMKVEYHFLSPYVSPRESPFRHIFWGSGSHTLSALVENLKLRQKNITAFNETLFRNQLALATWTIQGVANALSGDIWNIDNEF
Sequence of UniProt Q14416 (whole entry, looked up): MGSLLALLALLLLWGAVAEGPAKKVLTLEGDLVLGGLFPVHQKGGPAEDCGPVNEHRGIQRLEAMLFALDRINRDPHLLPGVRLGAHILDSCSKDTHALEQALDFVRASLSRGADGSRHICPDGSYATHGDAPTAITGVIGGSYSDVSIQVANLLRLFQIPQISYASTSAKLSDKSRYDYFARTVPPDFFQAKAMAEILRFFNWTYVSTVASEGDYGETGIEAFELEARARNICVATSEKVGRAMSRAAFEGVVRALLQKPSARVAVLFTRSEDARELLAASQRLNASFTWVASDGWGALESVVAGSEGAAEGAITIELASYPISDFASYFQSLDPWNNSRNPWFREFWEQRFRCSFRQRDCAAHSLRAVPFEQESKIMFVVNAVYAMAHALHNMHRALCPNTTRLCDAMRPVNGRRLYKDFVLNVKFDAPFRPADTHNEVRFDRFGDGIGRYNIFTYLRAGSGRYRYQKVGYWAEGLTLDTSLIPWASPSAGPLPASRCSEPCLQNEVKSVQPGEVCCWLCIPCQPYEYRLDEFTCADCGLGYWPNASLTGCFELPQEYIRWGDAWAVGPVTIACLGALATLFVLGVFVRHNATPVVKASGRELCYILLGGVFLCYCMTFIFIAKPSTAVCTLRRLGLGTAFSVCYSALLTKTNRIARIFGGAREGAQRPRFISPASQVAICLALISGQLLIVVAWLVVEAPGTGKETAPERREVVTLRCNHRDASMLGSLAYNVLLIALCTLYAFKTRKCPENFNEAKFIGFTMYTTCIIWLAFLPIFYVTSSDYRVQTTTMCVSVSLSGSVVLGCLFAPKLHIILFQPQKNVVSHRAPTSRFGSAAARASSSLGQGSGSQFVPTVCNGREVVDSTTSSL
Sequence of UniProt Q9NY57 (whole entry, looked up): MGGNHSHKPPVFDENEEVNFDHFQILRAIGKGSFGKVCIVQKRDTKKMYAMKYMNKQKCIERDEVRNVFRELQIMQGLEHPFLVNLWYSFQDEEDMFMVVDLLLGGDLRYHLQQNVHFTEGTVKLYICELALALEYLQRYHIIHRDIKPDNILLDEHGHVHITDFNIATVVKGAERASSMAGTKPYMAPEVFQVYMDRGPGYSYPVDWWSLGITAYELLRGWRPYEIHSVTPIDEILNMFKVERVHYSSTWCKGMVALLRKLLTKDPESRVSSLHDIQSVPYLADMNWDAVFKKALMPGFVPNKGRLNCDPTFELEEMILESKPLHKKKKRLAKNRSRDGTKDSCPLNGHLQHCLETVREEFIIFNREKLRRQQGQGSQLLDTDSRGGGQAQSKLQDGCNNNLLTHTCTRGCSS
Sequence of UniProt P49238 (whole entry, looked up): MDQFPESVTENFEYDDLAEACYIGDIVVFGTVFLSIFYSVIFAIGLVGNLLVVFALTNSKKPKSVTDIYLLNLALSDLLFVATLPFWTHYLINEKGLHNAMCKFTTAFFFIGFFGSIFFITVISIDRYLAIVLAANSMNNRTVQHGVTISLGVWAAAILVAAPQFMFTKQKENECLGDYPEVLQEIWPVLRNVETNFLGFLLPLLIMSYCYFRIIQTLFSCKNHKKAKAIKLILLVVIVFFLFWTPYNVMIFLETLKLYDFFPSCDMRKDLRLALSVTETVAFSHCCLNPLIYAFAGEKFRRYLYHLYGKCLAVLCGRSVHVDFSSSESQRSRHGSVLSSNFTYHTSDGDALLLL
Sequence of UniProt Q13224 (whole entry, unmodified, looked up): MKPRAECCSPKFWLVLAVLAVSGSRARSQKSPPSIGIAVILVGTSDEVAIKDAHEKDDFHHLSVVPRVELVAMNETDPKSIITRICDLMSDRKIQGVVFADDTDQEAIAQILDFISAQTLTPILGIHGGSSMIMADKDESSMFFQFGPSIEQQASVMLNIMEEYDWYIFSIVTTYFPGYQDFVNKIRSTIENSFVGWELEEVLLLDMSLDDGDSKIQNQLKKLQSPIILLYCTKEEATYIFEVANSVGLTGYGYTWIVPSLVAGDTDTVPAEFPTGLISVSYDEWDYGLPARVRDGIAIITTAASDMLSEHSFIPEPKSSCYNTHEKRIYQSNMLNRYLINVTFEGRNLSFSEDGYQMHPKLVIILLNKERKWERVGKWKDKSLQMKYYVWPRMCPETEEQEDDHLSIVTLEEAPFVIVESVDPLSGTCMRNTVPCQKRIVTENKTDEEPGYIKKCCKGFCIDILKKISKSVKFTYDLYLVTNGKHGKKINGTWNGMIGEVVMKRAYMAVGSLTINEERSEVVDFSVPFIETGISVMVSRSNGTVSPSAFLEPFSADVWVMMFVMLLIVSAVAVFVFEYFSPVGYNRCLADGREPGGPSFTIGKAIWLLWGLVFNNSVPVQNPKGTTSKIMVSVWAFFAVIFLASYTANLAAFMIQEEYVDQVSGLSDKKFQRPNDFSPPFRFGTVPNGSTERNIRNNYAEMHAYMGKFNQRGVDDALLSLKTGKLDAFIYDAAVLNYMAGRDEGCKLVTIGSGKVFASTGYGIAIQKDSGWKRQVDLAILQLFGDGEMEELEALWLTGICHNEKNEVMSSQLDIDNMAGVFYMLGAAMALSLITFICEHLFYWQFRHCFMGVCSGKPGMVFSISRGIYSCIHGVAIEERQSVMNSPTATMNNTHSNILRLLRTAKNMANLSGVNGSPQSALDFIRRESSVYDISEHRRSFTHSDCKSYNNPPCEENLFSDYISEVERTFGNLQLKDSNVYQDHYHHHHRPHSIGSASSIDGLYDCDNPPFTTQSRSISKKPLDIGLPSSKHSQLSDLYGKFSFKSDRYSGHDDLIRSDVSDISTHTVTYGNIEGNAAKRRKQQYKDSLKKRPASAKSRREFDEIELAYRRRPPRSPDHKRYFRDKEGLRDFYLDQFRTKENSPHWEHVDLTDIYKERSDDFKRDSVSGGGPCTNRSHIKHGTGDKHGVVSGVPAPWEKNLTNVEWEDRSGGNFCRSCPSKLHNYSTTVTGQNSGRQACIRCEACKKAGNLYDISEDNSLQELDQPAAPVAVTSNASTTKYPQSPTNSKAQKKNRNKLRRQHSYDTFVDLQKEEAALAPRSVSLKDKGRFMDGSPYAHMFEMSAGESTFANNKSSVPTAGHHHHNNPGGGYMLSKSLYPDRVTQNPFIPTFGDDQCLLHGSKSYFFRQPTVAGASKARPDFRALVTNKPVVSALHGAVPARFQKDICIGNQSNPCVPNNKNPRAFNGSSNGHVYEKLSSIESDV
Sequence of UniProt P28072 (whole entry, looked up): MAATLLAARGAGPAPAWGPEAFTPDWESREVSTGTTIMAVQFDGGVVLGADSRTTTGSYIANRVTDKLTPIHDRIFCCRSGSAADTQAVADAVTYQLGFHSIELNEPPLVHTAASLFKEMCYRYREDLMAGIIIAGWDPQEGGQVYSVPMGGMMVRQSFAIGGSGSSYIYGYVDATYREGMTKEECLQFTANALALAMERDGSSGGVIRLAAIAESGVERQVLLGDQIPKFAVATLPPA
Sequence of UniProt Q96IU4 (whole entry, looked up): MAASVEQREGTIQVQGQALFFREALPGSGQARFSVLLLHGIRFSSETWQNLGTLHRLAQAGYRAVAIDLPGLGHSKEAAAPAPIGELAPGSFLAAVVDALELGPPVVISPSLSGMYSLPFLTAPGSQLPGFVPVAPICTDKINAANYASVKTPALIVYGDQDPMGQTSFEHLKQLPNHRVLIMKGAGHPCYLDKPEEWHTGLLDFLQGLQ

SMILES = [2H]c1c([2H])c([C@]2([2H])CCCN2C(=O)C(C)(C)Oc2ccc3cn[nH]c3c2)c([2H])c([2H])c1C([2H])([2H])[2H]; target = Ephrin type-B receptor 6 (EPHB6, Homo sapiens, UniProt O15197); assay = KINOMEscan; conditions = 1 µM; how to read = baseline: DMSO control; measurement = remaining binding; result = 88%
SMILES = Nc1nc2c(ncn2[C@@H]2O[C@@H]3COP(O)(=S)O[C@H]3[C@H]2O)c(=O)[nH]1 (single isomer, unassigned); target = anti-cGMP antibody; assay = antibody binding, competitive cGMP EIA; conditions = concentration not given, acetylated samples; how to read = baseline: EC50 cGMP over EC50 cpd, higher = stronger binding; measurement = relative binding affinity; result = 0.0027
SMILES = CC[C@@H](C)[C@@H](NC(=O)[C@@H](Cc1ccc(O)cc1)NC(=O)[C@H]1CCCN1C(=O)[C@@H](CCCNC(=N)N)NC(=O)[C@H](N)Cc1c[nH]cn1)C(=O)N[C@H](C)C(=O)N[C@H](Cc1c[nH]cn1)C(=O)N[C@H](CCCNC(=N)N)C(=O)N[C@H](CCCCNC(=O)c1cccc(S(=O)(=O)F)c1)C(=O)N[C@H](Cc1ccc(O)cc1)C(=O)N[C@H](CO)C(=O)N[C@H](Cc1ccccc1)C(N)=O; target = Transferrin receptor protein 1 (Tfrc, Mus musculus, UniProt Q62351); assay = flow cytometry; system = DC2.4; conditions = 24 h, pH 7.4, unit not given; how to read = baseline: 0 h; measurement = surface expression; result = 0.565 and 0.576
SMILES = CN(C(=O)n1cnc(-c2ccc[n+]([O-])c2)c1)C1CCCCC1; target = Monoacylglycerol lipase ABHD6 (Abhd6, Rattus norvegicus, UniProt Q5XI64); assay = enzyme activity, ABPP; system = rat, brain; conditions = oral, 100 mg/kg/day, 7 days; how to read = baseline: vehicle; measurement = fold change; result = -15
SMILES = Nc1ncnc2c1ncn2[C@@H]1O[C@H](CO)[C@@H](OP(=O)(O)O)[C@H]1O; target = Thermonuclease (nuc, Staphylococcus aureus, UniProt P00644); assay = ligand-coupled folding kinetics; conditions = pH 7.0, 22 °C, 2.7 M urea; measurement = ligand concentration at rate minimum; result = ~3 mM
SMILES = O=C[C@H](O)COP(=O)(O)O; target = TPI1 (Saccharomyces cerevisiae, UniProt P00942, Y208A); assay = substrate, GPDH/NADH-coupled; conditions = pH 5.7, 25 °C; measurement = Km; result = ~16 mM
SMILES = CO/N=C1\C[C@]2(C[C@@H]3C[C@@H](C/C=C(\C)C[C@@H](C)/C=C/C=C4\CO[C@@H]5[C@H](O)C(C)=C[C@@H](C(=O)O3)[C@]45O)O2)O[C@H](/C(C)=C/C(C)C)[C@H]1C; target = Oxysterols receptor LXR-alpha (NR1H3, Homo sapiens, UniProt Q13133); assay = coactivator recruitment; conditions = 0.4 µM; measurement = efficacy; result = 11.1 ± 5.3%
SMILES = CN(C)C1(CNC(=O)c2ccc3c(c2)CCN3C(=O)c2ccccc2)CCOCC1; target = Sodium- and chloride-dependent glycine transporter 2 (Homo sapiens, UniProt Q9Y345, W215F); assay = inhibitor, two-electrode voltage clamp; system = Xenopus oocytes, W215F mutant; how to read = baseline: wild type; measurement = potency decrease; result = > 18 fold
SMILES = COc1cc(N)c(Cl)cc1C(=O)NC1CN2CCC1CC2 (centres unmarked); target = NPBWR2 (Homo sapiens, UniProt P48146); assay = receptor activation, TANGO luminescence; conditions = concentration not given, unconfirmed screen; how to read = baseline: vehicle control; measurement = log2 fold change; result = 0.146
SMILES = Nc1nc2c(ncn2[C@@H]2O[C@@H]3COP(=O)(O)O[C@H]4[C@@H](O)[C@H](n5cnc6c(=O)[nH]c(N)nc65)O[C@@H]4COP(=O)(O)O[C@H]3[C@H]2O)c(=O)[nH]1; target = Cell cycle histidine kinase CckA, R374A; cytoplasmic region (Caulobacter vibrioides, UniProt Q9X688, R374A); assay = ITC; conditions = added: AMPPNP 5 mM; measurement = ΔH; result = 0.693 ± 0.0416 kcal/mol
SMILES = CC1(C)S[C@@H]2[C@H](NC(=O)Cc3ccccc3)C(=O)N2[C@H]1C(=O)O; target = Penicillin-binding protein 2X (Streptococcus pneumoniae R6, UniProt P59676); assay = inhibitor; system = Streptococcus pneumoniae; measurement = kinact/KI; result = 200000 ± 7400 M⁻¹ s⁻¹
SMILES = CC[C@H](CO)Nc1nc(NCc2ccc(-c3ccccn3)cc2)c2ncn(C(C)C)c2n1; target = Casein kinase I isoform gamma-2 (CSNK1G2, Homo sapiens, UniProt P78368); assay = KINOMEscan competition binding; conditions = 10 µM, primary screen; how to read = direction not given; measurement = binding score; result = 5.8
SMILES = O=C(Nc1nncs1)C(F)(F)Br; target = Mitogen-activated protein kinase 8 (MAPK8, Homo sapiens, UniProt P45983); assay = binding, isothermal titration calorimetry; measurement = ligand efficiency; result = 0.43
SMILES = O=c1oc(-c2ccccc2)ns1; target = Proteasome subunit beta type-6 (PSMB6, Homo sapiens, UniProt P28072); assay = enzyme inactivation, inhibitor; system = human PA28-activated proteasome; measurement = kobs/[I]; result = 0.95 M⁻¹ s⁻¹
SMILES = C[C@]1(COC(=O)c2cc(Cl)ccc2O)[C@H](C(=O)O)N2C(=O)/C(=C/c3ccccn3)[C@H]2S1(=O)=O; target = Beta-lactamase (blaOXA-33, Acinetobacter baumannii, UniProt Q8RLA6); measurement = Ki (inactivation); result = 1440 ± 634 nM
SMILES = CN1CCN(c2cc(-c3ccncc3)c(-c3ccc4ccccc4c3)nn2)CC1; target = Muscarinic acetylcholine receptor M2 (CHRM2, Homo sapiens, UniProt P08172); assay = agonist, FLIPR; conditions = 12.5 µM; measurement = activation; result = -0.6%
SMILES = O=C(Nc1cccnn1)N1CCC(=Cc2cccc(Oc3ccc(C(F)(F)F)cn3)c2)CC1; target = Metabotropic glutamate receptor 2 (GRM2, Homo sapiens, UniProt Q14416); assay = radioligand binding; conditions = 50 µM, added: [3H]LY341495; measurement = inhibition of binding; result = -4%
SMILES = CC[C@H](C)[C@@H]1NC(=O)[C@H](Cc2c[nH]c3ccccc23)NC(=O)[C@H](Cc2ccc(O)cc2)NC(=O)CSC[C@@H](C(N)=O)NC(=O)[C@H]([C@@H](C)O)NC(=O)[C@H](CO)NC(=O)[C@H](C(C)C)NC(=O)[C@H](Cc2ccc(O)cc2)NC(=O)[C@H](CCCNC(=N)N)NC(=O)[C@H](Cc2ccc(O)cc2)NC(=O)[C@H]([C@@H](C)O)NC(=O)[C@H]([C@@H](C)O)NC(=O)[C@H](Cc2c[nH]c3ccccc23)NC(=O)[C@H](CO)NC(=O)[C@H](CC(N)=O)NC(=O)[C@H](CO)NC1=O; target = Vacuolar protein sorting-associated protein 26A/Vacuolar protein sorting-associated protein 35, Vps35 residues 1–390 (Homo sapiens, UniProt O75436+Q96QK1); assay = ITC; conditions = 25 °C; measurement = ΔG; result = -9.2 ± 0.06 kcal/mol
SMILES = Cc1ncsc1-c1ccc(CNC(=O)[C@@H]2C[C@@H](O)CN2C(=O)[C@@H](NC(=O)COCCOCCOCCNC(=O)C[C@@H]2N=C(c3ccc(Cl)cc3)c3c(sc(C)c3C)-n3c(C)nnc32)C(C)(C)C)cc1; target = VHL-ElonginB-ElonginC complex human; assay = ternary complex formation, fluorescence polarization; conditions = added: SMARCA4 bromodomain; measurement = cooperativity factor; result = 1.7
SMILES = CCCCCCCCCCCC(=O)N[C@H]1CCOC1=O; target = qscR; assay = ligand, differential scanning fluorimetry; conditions = ligand complex; measurement = melting temperature; result = 55.5 °C
SMILES = COc1ccc(N2C(=O)N(c3c(C)cccc3Cl)Cc3cnc(Nc4ccc(C5CCN(C)CC5)cc4OC)nc32)nc1; target = High affinity nerve growth factor receptor (NTRK1, Homo sapiens, UniProt P04629); assay = kinase activity, inhibitor; conditions = 0.5 µM, kinase TRKA; measurement = inhibition; result = 6%
SMILES = CN(C(=O)n1cnc(-c2ccc[n+]([O-])c2)c1)C1CCCCC1; target = CX3C chemokine receptor 1 (CX3CR1, Homo sapiens, UniProt P49238); assay = radioligand binding, inhibitor; conditions = 10 µM; measurement = inhibition; result = 8%
SMILES = CC(C)(C)C(=O)CSc1ncc2c(n1)-c1ccsc1CC2; target = Dual specificity protein phosphatase 10, catalytic domain (Homo sapiens, UniProt Q9Y6W6); assay = X-ray co-crystal structure; conditions = concentration not given; measurement = active site volume; result = 53.7 ± 0.8 Å³
SMILES = C[C@H]1CN(c2n[nH]c3nc(N[C@H]4CC[C@H](NS(=O)(=O)CCC(F)(F)F)CC4)ncc23)CCO1; target = Stomatin-like protein 2, mitochondrial (Homo sapiens, UniProt Q9UJZ1); assay = Kinobeads competition, refers to: STOML2; conditions = 0.16 µM, unit not given; how to read = baseline: vehicle; measurement = remaining binding; result = 0.98
SMILES = C#CCCCCNC(=O)CI; target = Cytoskeleton-associated protein 4 (Homo sapiens, UniProt Q07065); assay = mass spectrometry profiling; system = H460 cell lysate; conditions = 100 µM over 10 µM, UniProt Q07065; how to read = baseline: high over low concentration; measurement = reactivity ratio; result = 1.66
SMILES = O=C(c1ccc(Cl)cc1)N1CCN2C(=O)N(OC(=O)N3CCOc4ccccc43)C(=O)C2C1 (centres unmarked); target = Putative protein-lysine deacylase ABHD14B (Homo sapiens, UniProt Q96IU4); assay = MS-based ABPP; system = SW-620 conditioned medium; conditions = 10 µM, 1 h, 37 °C, median protein ratio; how to read = baseline: compound over DMSO; measurement = probe labelling ratio; result = 1.32
SMILES = CCOC(=O)COc1ccc2c(=O)c3ccccc3oc2c1; target = Acetylcholinesterase (ache, Electrophorus electricus, UniProt O42275); assay = enzyme activity; conditions = 1.68 µM, added: substrate 1.73 mM; how to read = higher = faster reaction; measurement = reaction velocity; result = 0.0018 a.u.
SMILES = Clc1cc2c(cc1Cl)Oc1cc(Cl)c(Cl)cc1O2; target = Uncharacterized protein (Takifugu rubripes, UniProt Q4JHL4); assay = reporter gene, agonist, dual-luciferase; system = COS-7; conditions = 0.1 µM, 28 h; how to read = baseline: DMSO; measurement = fold induction; result = 13.3
SMILES = O=C(O)Cc1c[nH]cn1; target = Sodium- and chloride-dependent taurine transporter (SLC6A6, Homo sapiens, UniProt P31641, Y138A); assay = binding, microscale thermophoresis; conditions = 32.7 nM, fitted curve; how to read = higher = more binding; measurement = fraction bound; result = 0.00019
SMILES = CC(C)[C@@H](O)CC[C@@H](C)[C@H]1CC[C@H]2[C@@H]3CC=C4C[C@@H](O)CC[C@]4(C)[C@H]3CC[C@]12C; target = Glutamate NMDA receptor; GRIN1/GRIN2B (GRIN1/GRIN2B, Homo sapiens, UniProt Q05586+Q13224, P557A); assay = positive allosteric modulator, two-electrode voltage clamp; system = Xenopus oocytes expressing GluN1-P557A; conditions = 10 µM, 0.02% cremophor, added: 100 µM glutamate and glycine; how to read = baseline: without compound; measurement = current response; result = 131 ± 5.6%
SMILES = Nc1ncc(-c2nc(N3CCOCC3)nc(N3CCOCC3)n2)c(C(F)F)n1; target = Serine/threonine-protein kinase 32B (STK32B, Homo sapiens, UniProt Q9NY57); assay = KINOMEscan; conditions = 10 µM; measurement = remaining binding; result = 90%
SMILES = CN[C@@H]1C[C@H]2O[C@@](C)([C@@H]1OC)n1c3ccccc3c3c4c(c5c6ccccc6n2c5c31)C(=O)NC4; target = CDC2-like kinase 1 (Trypanosoma brucei brucei, UniProt Q382U0); assay = kinase activity, ADP-Glo; conditions = 0.07812 µM; measurement = remaining activity; result = 59%
SMILES = COc1cc(Nc2ncc(F)c(Nc3ccc4c(n3)NC(=O)C(C)(C)O4)n2)cc(OC)c1OC; target = Mitogen-activated protein kinase 15 (MAPK15, Homo sapiens, UniProt Q8TD08); assay = binding, KINOMEscan; conditions = 10 µM, ERK8 kinase; measurement = inhibition; result = 89%
SMILES = CCCOC/C(=N\c1ccc(Cl)cc1C(F)(F)F)n1ccnc1; target = Thyroxine 5-deiodinase (DIO3, Homo sapiens, UniProt P55073, C168G); assay = inhibitor; conditions = C168G variant; measurement = Hill slope; result = -0.744
SMILES = CCCC(=O)CC(=O)N[C@H]1CCOC1=O; target = qscR; assay = protein-ligand complex stability, differential scanning fluorimetry; measurement = melting temperature; result = 32 °C
SMILES = CN(CC(=O)O)C(=N)NP(=O)(O)O; target = Creatine kinase U-type, mitochondrial (CKMT1A, Homo sapiens, UniProt P12532, H99K); assay = substrate, Kinase-Glo luminescence; conditions = pH 7.0, reverse reaction, H61K mutant, added: second substrate in excess; measurement = Km; result = 3.4 ± 0.2 mM
SMILES = Cc1cc(C)n2c1C=C1C=CC(CCC(=O)Nc3ccc(OCC(=O)N[C@@H]4C(=O)N5[C@@H]4SC(C)(C)[C@@H]5C(=O)[O-])cc3)=[N+]1[B-]2(F)F.[Na+]; target = Penicillin-binding protein 2a (pbp2a, Streptococcus pneumoniae, UniProt Q8DNB6); assay = inhibitor; system = whole cells; conditions = 600 nM, six slowest PBPs; measurement = kobs; result = 0.0022 s⁻¹
SMILES = C=C(CN(C(=O)c1c(C(F)F)nn(C)c1F)C1CC1)c1ccc(Cl)cc1Cl; target = SDHD/SDHC/SDHB (Sus scrofa, UniProt A5GZW8+D0VWV4+Q007T0); assay = enzyme activity, inhibitor, DCIP reduction; system = pig; conditions = 0.06 µM, added: DCIP 120 µM; measurement = reaction velocity; result = 0.0271 µM/s and 0.0259 µM/s and 0.0258 µM/s
